Results from different studies.
Protocols differ between the studies behind these lines. “And” joins repeats or separate records; there may be more than shown. ± gives the spread as reported.

Under “late apoptotic cells”, `Cc1cc(C(C)(C)c2ccc(O)c(C)c2)ccc1O` is recorded as 34.4 ± 11.2% (HepG2 spheroids, dissociated; annexin V-FITC/PI flow cytometry; 0.01 µM, 96 h).
The toxic ratio of `CN(C)CCCC1(c2ccc(F)cc2)OCc2cc(C#N)ccc21` (centres unmarked) is reported as 23.9 (SH-SY5Y; 24 h, nominal concentration; reference: baseline IC10 over IC10).
`N#C[C@@]1(n2ccc(N)nc2=O)O[C@H](CO)[C@@H](O)[C@H]1O` has a micronucleated cells of 0.42% (CHO; 8 µM, with S9).
The CC50 of `Cc1cccc(/C=N/Nc2cc(N3CCOCC3)nc(OCCc3ccccn3)n2)c1` is reported as 0.24 µM (293T-ACE2; 40 (unit not given)).
Under “early apoptotic cells”, `CC(c1ccccc1)(c1ccc(O)cc1)c1ccc(O)cc1` is recorded as 13.9 ± 8.16% (HepG2 spheroids, dissociated; annexin V-FITC/PI flow cytometry; 10 µM, 24 h).
`N=C(N)NCCC[C@H](NC(=O)[C@H](Cc1c[nH]c2ccccc12)NC(=O)[C@H](CCCNC(=N)N)NC(=O)[C@H](Cc1c[nH]c2ccccc12)NC(=O)[C@H](Cc1c[nH]c2ccccc12)NC(=O)[C@H](Cc1c[nH]c2ccccc12)NC(=O)[C@H](CCCNC(=N)N)NC(=O)[C@H](Cc1c[nH]c2ccccc12)NC(=O)[C@H](CCCNC(=N)N)NC(=O)CN)C(N)=O` has an LC50 of greater than 512 µM (HD11 macrophages).
For `O=S(=O)(c1ccc(O)cc1)c1ccc(O)cc1`, the viable cells was 75.6 ± 5.89% (HepG2 spheroids, dissociated; annexin V-FITC/PI flow cytometry; 0.1 µM, 24 h).
The transport rate of `CC[C@H](C)[C@H](NC(=O)[C@@H](N)CC(N)=O)C(=O)N1CCC[C@H]1C(=O)N1CCC[C@H]1C(=O)N[C@@H](CC(C)C)C(=O)N[C@H](C(=O)N[C@@H](CCC(N)=O)C(=O)N[C@H](C(=O)N1CCC[C@H]1C(=O)N[C@H](C(=O)N[C@H](C(=O)N[C@H](C(=O)N1CCC[C@H]1C(=O)N1CCC[C@H]1C(=O)N[C@@H](Cc1ccccc1)C(=O)N[C@@H](CC(C)C)C(=O)N[C@@H](CCC(N)=O)C(=O)N1CCC[C@H]1C(=O)N[C@@H](CCC(=O)O)C(=O)O)C(C)C)C(C)C)C(C)C)[C@@H](C)O)[C@@H](C)O` is reported as 67.9 ± 5% (Caco-2 monolayers; 10 µM, 60 min, together with: Gly-Pro 10 mM preincubated 30 min; reference: no Gly-Pro).
Under “minimum cytotoxic concentration”, `Nc1ccn(C[C@@H](CO)OCP(=O)(O)O)c(=O)n1.O.O` is recorded as greater than 250 µM (HEL human embryonic lung fibroblasts; cell morphology alteration).
`O=S(=O)(O)C(F)(F)C(F)(F)C(F)(F)C(F)(F)F` has an LDH release of 25.7 mU/mL and 23.8 mU/mL and 19.4 mU/mL and 28.3 mU/mL (hTERT-RPTEC parental; concentration not given, 96-well plate).
`CNC(=O)Oc1cc(C)c(SC)c(C)c1` gave an IC10 of 30.7 µM (SH-SY5Y; cell viability, propidium iodide staining; 24 h, nominal concentration).
`Oc1ccc(C2(c3ccc(O)cc3)c3ccccc3-c3ccccc32)cc1` — result for “late apoptotic cells”: 42.9 ± 2.4% (HepG2 spheroids, dissociated; annexin V-FITC/PI flow cytometry; 10 µM, 96 h).
With `N=C(N)NCCC[C@H](NC(=O)[C@H](CCCNC(=N)N)NC(=O)[C@H](CCCCN)NC(=O)[C@H](CCCNC(=N)N)NC(=O)[C@H](Cc1ccccc1)NC(=O)[C@H](Cc1ccc(O)cc1)NC(=O)[C@H](CCCNC(=N)N)NC(=O)[C@H](CCCNC(=N)N)NC(=O)[C@H](CCCNC(=N)N)NC(=O)[C@H](CCCNC(=N)N)NC(=O)[C@H](CCCNC(=N)N)NC(=O)[C@H](Cc1ccc(O)cc1)NC(=O)[C@H](CCCNC(=N)N)NC(=O)[C@@H](N)CCCNC(=N)N)C(=O)O` the viability was 95.7 ± 1.4% (DF-1; LDH release; 5 µM, 1 h).
For `Nc1nc(CCc2ccccc2)c(Br)c(=O)[nH]1`, “minimum cytotoxic concentration” read greater than 100 µM (HEL human embryonic lung fibroblasts; cell morphology alteration).
The CC50 of `C[C@@H]1CN(c2ncc(C(O)CO)cc2Cl)CCN1c1nc2c(-c3cc(F)c(F)c(F)c3)cc(C(F)(F)F)cc2[nH]1` (some centres unmarked) is reported as greater than 2.5 µM (293T-ACE2; 40 (unit not given)).
With `N=C(N)NCCC[C@H](NC(=O)[C@H](CCCNC(=N)N)NC(=O)[C@H](CCCNC(=N)N)NC(=O)[C@H](CCC(N)=O)NC(=O)[C@H](CCCNC(=N)N)NC(=O)[C@H](CCCNC(=N)N)NC(=O)[C@H](CCCCN)NC(=O)[C@H](CCCCN)NC(=O)[C@H](CCCNC(=N)N)NC(=O)CNC(=O)[C@@H](N)Cc1ccc(O)cc1)C(=O)O` the viability was 98.1 ± 2.46% (DF-1; LDH release; 5 µM, 1 h).
`CC(C)C[C@H](NC(=O)[C@H](CCCNC(=N)N)NC(=O)[C@H](Cc1c[nH]c2ccccc12)NC(=O)[C@H](CCCNC(=N)N)NC(=O)[C@H](Cc1c[nH]c2ccccc12)NC(=O)[C@H](Cc1c[nH]c2ccccc12)NC(=O)[C@H](Cc1c[nH]c2ccccc12)NC(=O)[C@H](CCCNC(=N)N)NC(=O)[C@H](Cc1c[nH]c2ccccc12)NC(=O)[C@@H](N)CCCNC(=N)N)C(N)=O` has an LC50 of greater than 512 µM (HD11 macrophages).
For `C#CCN(C)Cc1ccc(O)c2ncccc12`, cytotoxicity read “toxic” (LUHMES MT1G-HiBiT neurons, differentiated; concentration not given).
`Nc1cnn(-c2ccccc2)c(=O)c1Cl` has an IC10 of 1260 µM (HEK293-H PPARγ-UAS-bla cells; cell viability, IncuCyte imaging; 24 h, freely dissolved concentration).
For `CN(C)c1ccc(C(Nc2nc3c(-c4ccc([N+](=O)[O-])cc4)nn(-c4ccccc4)c3s2)P(=O)(Oc2ccccc2)Oc2ccccc2)cc1` (centres unmarked), the viability was 95.4% (Vero cells; SRB; 10 µM, 10% fetal bovine serum).
`O=c1ccc2ccccc2o1`: “point of departure” 539 µM (HepaRG 3D spheroids; caspase-3/7 intensity; 72 h, high-content imaging).
With `C[C@H](NC(=O)[C@H](Cc1ccc(O)cc1)NC(=O)[C@H](CCCNC(=N)N)NC(=O)[C@H](CCCNC(=N)N)NC(=O)[C@H](CCCNC(=N)N)NC(=O)[C@@H](N)CCCNC(=N)N)C(=O)N[C@@H](CCCNC(=N)N)C(=O)N1CCC[C@H]1C(=O)N[C@@H](Cc1ccc(O)cc1)C(=O)N[C@@H](Cc1ccc(O)cc1)C(=O)N[C@@H](CCCNC(=N)N)C(=O)N[C@@H](CCCNC(=N)N)C(=O)N[C@@H](CCCNC(=N)N)C(=O)O` the viability was 93.8 ± 1.81% (DF-1; LDH release; 1 µM, 1 h).
For `CC1=C(O)C(=O)C=C2C1=CC=C1[C@@]2(C)CC[C@@]2(C)[C@@H]3C[C@](C)(C(=O)O)CC[C@]3(C)CC[C@]12C`, the EC50 was 25.9 µM (MYBPC3 iPSC cardiomyocytes; cytotoxicity; 24 h).
`COc1ccc2c(c1)c(CC(=O)O)c(C)n2C(=O)c1ccc(Cl)cc1` has an IC10 of 61.1 µM (HEK293-H PPARγ-UAS-bla cells; cell viability, IncuCyte imaging; 24 h, freely dissolved concentration).
`Oc1ccc(C(c2ccc(O)cc2)(C(F)(F)F)C(F)(F)F)cc1` has a necrotic cells of 49.8 ± 8.39% (HepG2 spheroids; annexin V-FITC/PI flow cytometry; 0.01 µM, 96 h).
`O=C(O)C(F)(F)C(F)(F)C(F)(F)F` — result for “LDH activity in medium”: 24.3 mU/mL (hTERT-RPTEC parental; LDH release; culture medium; concentration not given, 24 h, 96-well plate).

For quick reference, copied from above:
With `C[C@H](NC(=O)[C@H](Cc1ccc(O)cc1)NC(=O)[C@H](CCCNC(=N)N)NC(=O)[C@H](CCCNC(=N)N)NC(=O)[C@H](CCCNC(=N)N)NC(=O)[C@@H](N)CCCNC(=N)N)C(=O)N[C@@H](CCCNC(=N)N)C(=O)N1CCC[C@H]1C(=O)N[C@@H](Cc1ccc(O)cc1)C(=O)N[C@@H](Cc1ccc(O)cc1)C(=O)N[C@@H](CCCNC(=N)N)C(=O)N[C@@H](CCCNC(=N)N)C(=O)N[C@@H](CCCNC(=N)N)C(=O)O` the viability was 93.8 ± 1.81% (DF-1; LDH release; 1 µM, 1 h).
The toxic ratio of `CN(C)CCCC1(c2ccc(F)cc2)OCc2cc(C#N)ccc21` (centres unmarked) is reported as 23.9 (SH-SY5Y; 24 h, nominal concentration; reference: baseline IC10 over IC10).
